Published values collected from several papers.
Each numbered part is a random draw from the data of one study; scales do not carry over between parts.
Chain of UniProt P42336 (whole entry, unmodified, looked up): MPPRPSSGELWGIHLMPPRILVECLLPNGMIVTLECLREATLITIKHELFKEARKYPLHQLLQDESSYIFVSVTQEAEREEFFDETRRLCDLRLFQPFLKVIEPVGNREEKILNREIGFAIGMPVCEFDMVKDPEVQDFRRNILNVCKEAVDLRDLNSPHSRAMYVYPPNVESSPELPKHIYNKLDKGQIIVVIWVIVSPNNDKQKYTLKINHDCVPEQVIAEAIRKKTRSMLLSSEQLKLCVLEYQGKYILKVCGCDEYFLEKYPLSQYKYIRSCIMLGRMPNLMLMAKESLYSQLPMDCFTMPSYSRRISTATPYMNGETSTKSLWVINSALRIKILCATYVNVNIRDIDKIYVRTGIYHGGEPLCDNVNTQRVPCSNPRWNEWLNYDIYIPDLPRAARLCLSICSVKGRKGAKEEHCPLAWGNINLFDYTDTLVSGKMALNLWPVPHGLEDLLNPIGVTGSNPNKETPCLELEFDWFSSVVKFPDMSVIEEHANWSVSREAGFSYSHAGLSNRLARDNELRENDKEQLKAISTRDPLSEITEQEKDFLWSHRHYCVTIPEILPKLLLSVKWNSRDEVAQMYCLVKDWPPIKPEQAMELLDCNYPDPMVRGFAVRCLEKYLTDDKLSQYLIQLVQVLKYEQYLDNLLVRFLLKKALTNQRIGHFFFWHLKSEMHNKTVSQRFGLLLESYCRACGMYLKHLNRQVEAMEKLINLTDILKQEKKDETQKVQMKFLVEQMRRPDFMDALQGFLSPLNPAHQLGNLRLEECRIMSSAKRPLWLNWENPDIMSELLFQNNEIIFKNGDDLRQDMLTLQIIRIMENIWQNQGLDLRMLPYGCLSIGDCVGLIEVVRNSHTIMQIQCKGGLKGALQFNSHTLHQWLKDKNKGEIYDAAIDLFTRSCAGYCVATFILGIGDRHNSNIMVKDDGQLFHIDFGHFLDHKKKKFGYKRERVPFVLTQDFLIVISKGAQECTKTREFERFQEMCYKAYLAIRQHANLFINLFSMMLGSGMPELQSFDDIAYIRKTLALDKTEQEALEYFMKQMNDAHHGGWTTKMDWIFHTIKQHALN
Chain of UniProt Q6ZN16 (whole entry, looked up): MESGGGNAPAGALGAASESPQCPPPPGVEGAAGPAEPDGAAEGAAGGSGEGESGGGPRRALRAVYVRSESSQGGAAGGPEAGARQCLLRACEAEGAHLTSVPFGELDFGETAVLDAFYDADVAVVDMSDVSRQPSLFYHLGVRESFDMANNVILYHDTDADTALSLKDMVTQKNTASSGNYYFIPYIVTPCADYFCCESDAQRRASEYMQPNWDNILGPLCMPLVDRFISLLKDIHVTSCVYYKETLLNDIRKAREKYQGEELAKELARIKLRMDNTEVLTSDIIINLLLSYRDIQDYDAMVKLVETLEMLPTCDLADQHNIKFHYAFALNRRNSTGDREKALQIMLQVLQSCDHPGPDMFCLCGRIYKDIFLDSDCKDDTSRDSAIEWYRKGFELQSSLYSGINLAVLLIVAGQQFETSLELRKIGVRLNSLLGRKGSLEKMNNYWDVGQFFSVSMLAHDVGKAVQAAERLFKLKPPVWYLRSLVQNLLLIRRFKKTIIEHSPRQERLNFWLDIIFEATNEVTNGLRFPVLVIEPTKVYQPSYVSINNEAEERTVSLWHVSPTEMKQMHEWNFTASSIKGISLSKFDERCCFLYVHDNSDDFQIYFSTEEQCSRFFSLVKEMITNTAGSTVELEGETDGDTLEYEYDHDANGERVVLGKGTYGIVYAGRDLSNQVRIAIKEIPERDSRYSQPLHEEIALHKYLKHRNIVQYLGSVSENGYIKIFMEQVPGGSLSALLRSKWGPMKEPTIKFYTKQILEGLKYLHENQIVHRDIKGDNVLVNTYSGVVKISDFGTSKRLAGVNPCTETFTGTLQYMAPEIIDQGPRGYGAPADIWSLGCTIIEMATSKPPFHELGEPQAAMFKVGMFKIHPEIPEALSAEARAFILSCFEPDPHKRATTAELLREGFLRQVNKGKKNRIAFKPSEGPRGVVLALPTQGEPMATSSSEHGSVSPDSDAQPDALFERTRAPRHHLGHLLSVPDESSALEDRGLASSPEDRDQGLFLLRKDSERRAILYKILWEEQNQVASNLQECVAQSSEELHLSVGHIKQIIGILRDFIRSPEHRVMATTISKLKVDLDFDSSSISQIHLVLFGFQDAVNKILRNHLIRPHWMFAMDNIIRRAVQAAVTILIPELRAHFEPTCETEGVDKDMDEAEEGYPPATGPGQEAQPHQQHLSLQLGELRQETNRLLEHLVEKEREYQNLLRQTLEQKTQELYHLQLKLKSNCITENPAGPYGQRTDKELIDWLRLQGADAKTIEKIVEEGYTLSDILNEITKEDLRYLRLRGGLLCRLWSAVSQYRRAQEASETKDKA
Chain of UniProt P08631 (whole entry, looked up): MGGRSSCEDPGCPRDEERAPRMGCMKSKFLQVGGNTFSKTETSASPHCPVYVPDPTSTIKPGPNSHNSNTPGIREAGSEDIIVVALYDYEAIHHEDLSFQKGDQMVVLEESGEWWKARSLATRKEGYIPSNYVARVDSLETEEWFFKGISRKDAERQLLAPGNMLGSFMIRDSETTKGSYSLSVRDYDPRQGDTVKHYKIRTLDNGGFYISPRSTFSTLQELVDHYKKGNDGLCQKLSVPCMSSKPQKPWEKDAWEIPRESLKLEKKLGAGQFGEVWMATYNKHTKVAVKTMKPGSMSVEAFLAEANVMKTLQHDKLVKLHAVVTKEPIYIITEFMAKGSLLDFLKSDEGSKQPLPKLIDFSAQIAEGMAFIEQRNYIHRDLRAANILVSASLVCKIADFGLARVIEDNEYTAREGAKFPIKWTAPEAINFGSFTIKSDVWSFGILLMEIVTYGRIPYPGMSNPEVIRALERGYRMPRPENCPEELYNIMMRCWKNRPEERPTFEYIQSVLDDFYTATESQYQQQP
Chain of UniProt Q9NRP7 (whole entry, looked up): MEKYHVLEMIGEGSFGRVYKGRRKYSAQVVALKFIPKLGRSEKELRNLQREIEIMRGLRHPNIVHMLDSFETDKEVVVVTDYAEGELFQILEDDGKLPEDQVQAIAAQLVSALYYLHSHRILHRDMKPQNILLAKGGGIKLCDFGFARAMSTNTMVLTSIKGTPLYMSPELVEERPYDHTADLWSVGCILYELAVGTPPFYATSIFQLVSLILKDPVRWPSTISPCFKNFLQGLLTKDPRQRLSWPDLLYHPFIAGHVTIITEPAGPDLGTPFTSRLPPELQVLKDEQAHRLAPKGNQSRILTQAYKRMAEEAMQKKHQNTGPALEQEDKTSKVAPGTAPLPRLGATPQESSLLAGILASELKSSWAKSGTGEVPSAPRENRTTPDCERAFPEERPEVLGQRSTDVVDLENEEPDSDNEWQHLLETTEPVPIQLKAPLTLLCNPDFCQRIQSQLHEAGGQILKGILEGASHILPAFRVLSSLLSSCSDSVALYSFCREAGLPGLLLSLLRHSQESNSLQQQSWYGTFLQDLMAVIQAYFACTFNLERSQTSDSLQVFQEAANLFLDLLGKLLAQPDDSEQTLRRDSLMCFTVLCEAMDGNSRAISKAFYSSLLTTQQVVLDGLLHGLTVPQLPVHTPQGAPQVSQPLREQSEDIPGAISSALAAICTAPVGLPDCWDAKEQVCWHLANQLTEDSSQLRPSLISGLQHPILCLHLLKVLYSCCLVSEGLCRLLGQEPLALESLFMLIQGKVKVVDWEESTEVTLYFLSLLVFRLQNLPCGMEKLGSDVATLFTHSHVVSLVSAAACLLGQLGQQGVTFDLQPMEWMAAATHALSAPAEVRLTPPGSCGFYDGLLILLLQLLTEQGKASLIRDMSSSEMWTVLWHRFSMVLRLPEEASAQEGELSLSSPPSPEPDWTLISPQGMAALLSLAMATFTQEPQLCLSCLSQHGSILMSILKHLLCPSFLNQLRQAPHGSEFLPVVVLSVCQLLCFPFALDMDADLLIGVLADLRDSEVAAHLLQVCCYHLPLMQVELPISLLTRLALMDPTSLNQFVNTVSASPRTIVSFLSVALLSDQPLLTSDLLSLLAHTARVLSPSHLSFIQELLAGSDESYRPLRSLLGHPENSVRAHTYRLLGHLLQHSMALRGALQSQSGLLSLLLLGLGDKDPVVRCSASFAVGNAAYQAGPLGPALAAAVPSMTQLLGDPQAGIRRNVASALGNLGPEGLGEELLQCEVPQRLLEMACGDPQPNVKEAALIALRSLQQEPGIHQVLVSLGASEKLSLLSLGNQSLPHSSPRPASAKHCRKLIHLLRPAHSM

Block 1 — observed: enzyme activity; mode: inhibitor; tested at: 0.5 µM; reference: control
Target: Death-associated protein kinase 3 (DAPK3, Homo sapiens, UniProt O43293)
Chain of UniProt O43293 (whole entry, looked up): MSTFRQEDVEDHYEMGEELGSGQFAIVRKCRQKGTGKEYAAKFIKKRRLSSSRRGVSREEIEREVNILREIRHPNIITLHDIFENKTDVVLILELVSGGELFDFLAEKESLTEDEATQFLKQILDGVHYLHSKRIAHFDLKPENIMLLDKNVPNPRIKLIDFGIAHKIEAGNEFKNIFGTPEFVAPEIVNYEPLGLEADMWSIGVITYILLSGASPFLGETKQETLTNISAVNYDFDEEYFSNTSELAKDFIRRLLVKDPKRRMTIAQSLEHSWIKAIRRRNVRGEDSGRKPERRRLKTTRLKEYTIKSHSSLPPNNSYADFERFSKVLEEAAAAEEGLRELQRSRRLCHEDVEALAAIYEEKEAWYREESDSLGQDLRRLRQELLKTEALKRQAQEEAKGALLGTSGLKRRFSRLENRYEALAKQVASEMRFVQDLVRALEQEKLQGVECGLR
SMILES	remaining activity
N#CC(C#N)=C(N)/C(C#N)=C/c1ccc(O)cc1	91.1%
Cc1cccc(-c2[nH]c(C(C)(C)C)nc2-c2ccc3c(c2)OCO3)n1	97%
CO[C@H]1C[C@@H]2CC[C@@H](C)[C@@](O)(O2)C(=O)C(=O)N2CCCC[C@H]2C(=O)O[C@H]([C@H](C)C[C@@H]2CC[C@@H](O)[C@H](OC)C2)CC(=O)[C@H](C)/C=C(\C)[C@@H](O)[C@@H](OC)C(=O)[C@H](C)C[C@H](C)/C=C/C=C/C=C/1C	104%
Cn1c2ccccc2c2c3c(c4c5ccccc5n(CCC#N)c4c21)CNC3=O	93.6%
Oc1ccc(-c2nc(-c3ccncc3)c(-c3ccc(F)cc3)[nH]2)cc1	100%
O=C(CCCc1ccc(-c2ccccc2F)cc1)Nc1ccc(O)cc1	104%
COc1cc2ncnc(Nc3ccc(Oc4ccccc4)cc3)c2cc1OC	96.9%
Cc1ccc(Nc2nccc(N(C)c3ccc4c(C)n(C)nc4c3)n2)cc1S(N)(=O)=O	92.3%
CC(C)[C@H](CO)Nc1nc(Nc2cc(N)cc(Cl)c2)c2ncn(C(C)C)c2n1	96.7%
Cc1ccc(NC(=O)c2ccc(CN3CCN(C)CC3)cc2)cc1Nc1nc(-c2cccnc2)cs1	100%
O=C(O)c1ccc2c3c1cccc3c(=O)n1c3ccccc3nc21	51.3%
COc1ccc(C(=O)Nc2sc3c(c2C(N)=O)CCCC3)cc1OC	102%
O=S(=O)(c1cccc2cnccc12)N1CCCNCC1	93%
Cc1nc(-c2ccccc2)c(-c2ccncc2)o1	101%

Block 2 — SMILES: FC(F)(F)c1ccc2c(c1)nc(-c1cccnc1)n2C1CC1; observed: cell-free assay; technique: competition with immobilised ligand; tested at: 1 µM
target	remaining binding
Mitogen-activated protein kinase kinase kinase 3 (MAP3K3, Homo sapiens, UniProt Q99759)	100%
Epidermal growth factor receptor (EGFR, Homo sapiens, UniProt P00533, L858R)	91%
Serine/threonine-protein kinase MRCK beta (CDC42BPB, Homo sapiens, UniProt Q9Y5S2)	100%
Mitogen-activated protein kinase kinase kinase 15 (MAP3K15, Homo sapiens, UniProt Q6ZN16)	100%
Mitogen-activated protein kinase kinase kinase 4 (MAP3K4, Homo sapiens, UniProt Q9Y6R4)	100%
Phosphatidylinositol 4,5-bisphosphate 3-kinase catalytic subunit alpha isoform (PIK3CA, Homo sapiens, UniProt P42336, E542K)	100%
Epidermal growth factor receptor (EGFR, Homo sapiens, UniProt P00533, del746-750)	100%
SRSF protein kinase 1 (SRPK1, Homo sapiens, UniProt Q96SB4)	80%
LIM domain kinase 2 (LIMK2, Homo sapiens, UniProt P53671)	100%
Serine/threonine-protein kinase 36 (STK36, Homo sapiens, UniProt Q9NRP7)	84%
Ephrin type-A receptor 7 (EPHA7, Homo sapiens, UniProt Q15375)	100%
Epidermal growth factor receptor (EGFR, Homo sapiens, UniProt P00533, T790M)	87%
Tyrosine-protein kinase HCK (HCK, Homo sapiens, UniProt P08631)	100%
Serine/threonine-protein kinase/endoribonuclease IRE1 (ERN1, Homo sapiens, UniProt O75460)	100%
Serine/threonine-protein kinase SIK2 (SIK2, Homo sapiens, UniProt Q9H0K1)	100%
Receptor-type tyrosine-protein kinase FLT3, autoinhibited (FLT3, Homo sapiens, UniProt P36888)	100%
Bone morphogenetic protein receptor type-1B (BMPR1B, Homo sapiens, UniProt O00238)	83%

Block 3 — technique: competition protein-binding microarray; form: double-stranded DNA, one strand shown; sample: in vitro; tested at: 2 µM; with: Cbf1 competitor, 0.05 µM; reading: higher = stronger binding
Target: Phosphate system positive regulatory protein PHO4, full length, GST-tagged (PHO4, Saccharomyces cerevisiae, UniProt P07270, residues 1-312)
Setting: whole 60-bp probe, lowest competitor level
Target sequence (chain): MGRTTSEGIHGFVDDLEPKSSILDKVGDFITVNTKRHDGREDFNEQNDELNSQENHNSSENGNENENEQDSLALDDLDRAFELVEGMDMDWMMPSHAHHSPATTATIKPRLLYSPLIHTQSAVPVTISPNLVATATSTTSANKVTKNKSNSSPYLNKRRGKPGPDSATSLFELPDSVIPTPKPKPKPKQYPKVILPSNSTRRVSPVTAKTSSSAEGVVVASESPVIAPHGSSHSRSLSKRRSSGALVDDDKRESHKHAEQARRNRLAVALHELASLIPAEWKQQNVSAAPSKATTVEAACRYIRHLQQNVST
Strand	fluorescence intensity [a.u.]
ATAAGGAATAAAAAACACGTGCTAATAAAAAATCAAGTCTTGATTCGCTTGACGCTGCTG	18000
CAAGGGGGGGCCAGACACGGGCCGCTCTGGTTGGTCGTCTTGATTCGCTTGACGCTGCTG	7740
CTAACGAAGGTTTGCCCGGTGGGTGACAAGCCAAGTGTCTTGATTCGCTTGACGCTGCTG	3730
TGTGGCTGCGTTCGTCACGGGTCCACCTCAGGCAGAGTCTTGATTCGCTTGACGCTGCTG	5540
CAAACGGTTTGGCCGCTCGTGTCGGCATTGGTCAAAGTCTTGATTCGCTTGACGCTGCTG	7060
CTTCTGTAAATTTGCCTGGTGGGTGGACGCGCCCCGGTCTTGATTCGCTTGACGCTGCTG	4400
CGTCCTAGTGATTTTCACGTGATATCCATGAGGAAGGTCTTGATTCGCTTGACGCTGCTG	13400
TGACAGAAAACTTAGATCGTGACGGCAAATTAAACGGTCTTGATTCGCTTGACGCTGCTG	7150

Further values, each from its own experiment — technique: surface plasmon resonance; form: double-stranded DNA, one strand shown; sample: in vitro; tested at: 1 nM to 1 µM; setting: 10-bp κB site, 1:1 kinetic fit, 10 °C; reading: higher = slower dissociation
Target: Proto-oncogene c-Rel, Rel homology region (Rel, Mus musculus, UniProt P15307, residues 1-282)
Chain of UniProt P15307 (1-282, looked up): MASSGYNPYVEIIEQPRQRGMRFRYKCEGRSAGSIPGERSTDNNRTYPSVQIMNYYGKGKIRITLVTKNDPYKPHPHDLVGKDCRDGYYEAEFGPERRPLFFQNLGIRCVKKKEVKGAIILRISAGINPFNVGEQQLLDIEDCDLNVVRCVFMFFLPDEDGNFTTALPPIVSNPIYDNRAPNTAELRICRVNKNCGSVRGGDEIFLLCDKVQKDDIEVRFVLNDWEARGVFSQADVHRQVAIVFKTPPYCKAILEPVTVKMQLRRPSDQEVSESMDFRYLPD
Strand	dissociation half-life
GGGGAATTTT	64 s
AGGAATTCCA	46 s
